Assay results of several laboratories.
Parts stem from different laboratories: compare values within a part only.
Sequence of UniProt Q7KZI7 (whole entry, looked up): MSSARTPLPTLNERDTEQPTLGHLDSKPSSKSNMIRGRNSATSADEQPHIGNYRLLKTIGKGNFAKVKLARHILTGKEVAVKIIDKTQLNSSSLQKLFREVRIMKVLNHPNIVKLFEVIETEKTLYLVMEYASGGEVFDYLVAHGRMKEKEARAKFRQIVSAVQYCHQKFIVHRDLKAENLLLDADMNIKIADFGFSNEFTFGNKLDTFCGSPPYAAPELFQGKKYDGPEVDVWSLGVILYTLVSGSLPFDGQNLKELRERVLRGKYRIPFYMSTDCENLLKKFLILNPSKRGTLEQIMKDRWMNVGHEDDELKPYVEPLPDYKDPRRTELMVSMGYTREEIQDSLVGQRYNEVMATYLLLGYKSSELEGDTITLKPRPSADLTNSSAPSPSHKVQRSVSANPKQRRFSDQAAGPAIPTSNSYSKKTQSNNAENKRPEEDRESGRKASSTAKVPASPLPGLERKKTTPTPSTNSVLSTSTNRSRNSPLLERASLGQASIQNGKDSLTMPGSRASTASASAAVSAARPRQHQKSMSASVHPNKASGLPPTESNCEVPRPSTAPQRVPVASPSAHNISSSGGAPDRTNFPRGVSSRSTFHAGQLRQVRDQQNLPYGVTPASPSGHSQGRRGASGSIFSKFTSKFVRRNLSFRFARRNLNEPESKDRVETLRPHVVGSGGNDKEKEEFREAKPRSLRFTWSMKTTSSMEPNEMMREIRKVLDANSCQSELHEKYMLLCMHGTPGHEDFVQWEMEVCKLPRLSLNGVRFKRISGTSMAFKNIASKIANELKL
Sequence of UniProt P11309 (whole entry, looked up): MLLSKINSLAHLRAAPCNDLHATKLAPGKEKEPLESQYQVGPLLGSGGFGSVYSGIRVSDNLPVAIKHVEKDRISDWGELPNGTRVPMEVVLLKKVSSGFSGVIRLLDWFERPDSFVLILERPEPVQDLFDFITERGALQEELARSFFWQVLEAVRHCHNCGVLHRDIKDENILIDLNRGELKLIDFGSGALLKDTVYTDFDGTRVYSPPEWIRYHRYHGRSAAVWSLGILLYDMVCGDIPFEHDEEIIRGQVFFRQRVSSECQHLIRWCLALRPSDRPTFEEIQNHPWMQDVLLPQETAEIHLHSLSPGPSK
Sequence of UniProt Q13043 (whole entry, looked up): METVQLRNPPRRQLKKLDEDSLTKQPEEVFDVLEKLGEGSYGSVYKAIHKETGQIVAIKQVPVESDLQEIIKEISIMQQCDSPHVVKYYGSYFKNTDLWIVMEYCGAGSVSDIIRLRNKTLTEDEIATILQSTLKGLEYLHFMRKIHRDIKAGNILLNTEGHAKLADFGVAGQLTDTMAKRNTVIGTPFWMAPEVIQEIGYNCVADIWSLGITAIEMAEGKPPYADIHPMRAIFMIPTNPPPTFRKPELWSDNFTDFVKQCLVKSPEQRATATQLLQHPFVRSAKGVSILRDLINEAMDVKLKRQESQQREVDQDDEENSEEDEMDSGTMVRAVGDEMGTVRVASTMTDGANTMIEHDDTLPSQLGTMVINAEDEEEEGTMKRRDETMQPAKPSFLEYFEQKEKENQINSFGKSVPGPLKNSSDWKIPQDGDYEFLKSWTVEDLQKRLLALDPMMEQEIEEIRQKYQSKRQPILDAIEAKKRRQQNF
Sequence of UniProt Q9BWU1 (whole entry, looked up): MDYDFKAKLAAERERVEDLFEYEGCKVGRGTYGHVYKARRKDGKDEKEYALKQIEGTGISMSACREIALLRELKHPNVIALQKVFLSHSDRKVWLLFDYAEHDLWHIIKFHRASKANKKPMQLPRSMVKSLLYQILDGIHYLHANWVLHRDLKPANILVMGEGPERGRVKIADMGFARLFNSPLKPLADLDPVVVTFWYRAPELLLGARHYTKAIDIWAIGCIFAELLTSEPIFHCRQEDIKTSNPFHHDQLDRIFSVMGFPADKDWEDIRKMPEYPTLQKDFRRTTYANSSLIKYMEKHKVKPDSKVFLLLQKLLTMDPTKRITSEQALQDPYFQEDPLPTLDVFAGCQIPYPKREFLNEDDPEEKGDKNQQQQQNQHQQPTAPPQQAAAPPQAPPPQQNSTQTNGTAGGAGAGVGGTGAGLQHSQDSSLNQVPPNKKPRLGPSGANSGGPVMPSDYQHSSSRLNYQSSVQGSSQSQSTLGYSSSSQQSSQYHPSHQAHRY
Sequence of UniProt Q16816 (whole entry, looked up): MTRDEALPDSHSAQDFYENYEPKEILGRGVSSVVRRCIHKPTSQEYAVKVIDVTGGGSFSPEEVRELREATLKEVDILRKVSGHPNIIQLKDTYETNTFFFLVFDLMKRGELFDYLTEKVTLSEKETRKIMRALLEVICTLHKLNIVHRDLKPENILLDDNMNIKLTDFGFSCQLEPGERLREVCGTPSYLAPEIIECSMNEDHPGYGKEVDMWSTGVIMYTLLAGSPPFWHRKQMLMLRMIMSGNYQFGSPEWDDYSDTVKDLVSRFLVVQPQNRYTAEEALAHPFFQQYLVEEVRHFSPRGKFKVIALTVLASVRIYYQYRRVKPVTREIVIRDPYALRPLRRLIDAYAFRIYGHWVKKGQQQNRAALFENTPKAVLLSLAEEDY
Sequence of UniProt Q9NRH2 (whole entry, looked up): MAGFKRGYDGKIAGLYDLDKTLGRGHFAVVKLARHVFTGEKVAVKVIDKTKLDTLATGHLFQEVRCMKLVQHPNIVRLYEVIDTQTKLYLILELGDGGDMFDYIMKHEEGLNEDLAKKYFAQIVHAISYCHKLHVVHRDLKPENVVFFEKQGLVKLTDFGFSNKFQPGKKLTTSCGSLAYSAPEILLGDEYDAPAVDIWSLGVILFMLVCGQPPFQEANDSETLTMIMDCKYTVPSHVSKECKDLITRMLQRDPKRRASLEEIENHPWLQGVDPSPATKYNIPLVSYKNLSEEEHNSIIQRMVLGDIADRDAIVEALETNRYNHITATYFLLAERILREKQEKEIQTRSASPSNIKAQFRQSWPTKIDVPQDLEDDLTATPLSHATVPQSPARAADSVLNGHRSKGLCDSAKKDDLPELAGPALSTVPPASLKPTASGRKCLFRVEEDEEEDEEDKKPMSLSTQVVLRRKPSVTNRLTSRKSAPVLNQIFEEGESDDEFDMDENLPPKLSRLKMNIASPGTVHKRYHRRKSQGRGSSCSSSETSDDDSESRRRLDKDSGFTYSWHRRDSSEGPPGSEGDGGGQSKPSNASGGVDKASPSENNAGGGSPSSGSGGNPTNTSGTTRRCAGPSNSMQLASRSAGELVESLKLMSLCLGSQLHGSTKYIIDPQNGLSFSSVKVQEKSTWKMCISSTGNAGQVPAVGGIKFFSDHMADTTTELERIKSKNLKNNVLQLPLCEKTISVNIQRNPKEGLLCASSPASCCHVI
Sequence of UniProt Q13470 (whole entry, looked up): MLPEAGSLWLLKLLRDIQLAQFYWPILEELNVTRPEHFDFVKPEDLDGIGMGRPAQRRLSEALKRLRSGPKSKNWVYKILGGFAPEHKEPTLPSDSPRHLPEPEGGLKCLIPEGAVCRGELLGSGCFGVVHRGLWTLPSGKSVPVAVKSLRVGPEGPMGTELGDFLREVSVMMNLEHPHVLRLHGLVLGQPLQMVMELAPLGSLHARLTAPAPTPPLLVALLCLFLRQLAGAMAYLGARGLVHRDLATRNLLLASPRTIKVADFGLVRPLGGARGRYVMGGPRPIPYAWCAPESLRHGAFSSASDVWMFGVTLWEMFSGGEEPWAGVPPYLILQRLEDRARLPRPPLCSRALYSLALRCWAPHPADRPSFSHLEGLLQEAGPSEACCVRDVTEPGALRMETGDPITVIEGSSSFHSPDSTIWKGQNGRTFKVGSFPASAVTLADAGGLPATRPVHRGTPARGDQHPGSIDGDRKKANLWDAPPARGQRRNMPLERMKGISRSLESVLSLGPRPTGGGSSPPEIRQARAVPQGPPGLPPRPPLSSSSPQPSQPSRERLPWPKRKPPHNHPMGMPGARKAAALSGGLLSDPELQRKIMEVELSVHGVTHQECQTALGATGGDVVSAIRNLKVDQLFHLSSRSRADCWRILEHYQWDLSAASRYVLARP

Sample 1
SMILES: CN1CCN(C(=O)c2ccc(NC(=O)Nc3ccc(N(C)c4ccnc(Nc5ccc(CS(C)(=O)=O)cc5)n4)cc3)cc2)CC1
Tested at: 1 µM
For SNF-related serine/threonine-protein kinase (SNRK, Homo sapiens, UniProt Q9NRH2); competitive binding panel; reference: vehicle: remaining binding read 78%.
It gave 55% for remaining binding (Epidermal growth factor receptor (EGFR, Homo sapiens, UniProt P00533, L858R/T790M); competitive binding panel; reference: vehicle).
Focal adhesion kinase 1 (PTK2, Homo sapiens, UniProt Q05397); competitive binding; FAK — remaining binding: 36%.
The remaining binding was 8.3% (Tyrosine-protein kinase receptor Tie-1 (TIE1, Homo sapiens, UniProt P35590); competitive binding panel; reference: vehicle).
It gave 100% for remaining binding (Phosphorylase b kinase gamma catalytic chain, skeletal muscle/heart isoform (PHKG1, Homo sapiens, UniProt Q16816); competitive binding panel; reference: vehicle).
The remaining binding was 96% (Serine/threonine-protein kinase 4 (STK4, Homo sapiens, UniProt Q13043); competitive binding panel, refers to: MST1; reference: vehicle).
Serine/threonine-protein kinase MARK2 (MARK2, Homo sapiens, UniProt Q7KZI7); competitive binding panel; reference: vehicle — remaining binding: 84%.

Sample 2
Structure (SMILES): C=CC(=O)N1CCC[C@@H](n2nc(-c3ccc(Oc4ccccc4)cc3)c3c(N)ncnc32)C1
Action: inhibitor
Tested at: 1 µM
Non-receptor tyrosine-protein kinase TNK1 (TNK1, Homo sapiens, UniProt Q13470); enzyme activity — inhibition: 14%.
For Myosin-IIIa (MYO3A, Homo sapiens, UniProt Q8NEV4): inhibition read 34%.
Ephrin type-A receptor 5 (EPHA5, Homo sapiens, UniProt P54756); enzyme activity — inhibition: 10%.
For Serine/threonine-protein kinase pim-1 (PIM1, Homo sapiens, UniProt P11309); enzyme activity: inhibition read 0%.
Cyclin-dependent kinase 19 (CDK19, Homo sapiens, UniProt Q9BWU1) — inhibition: 33%.
For Mitogen-activated protein kinase kinase kinase 12 (MAP3K12, Homo sapiens, UniProt Q12852); enzyme activity: inhibition read 16%.

Sample 3
Target: G protein-coupled receptor kinase 5 (GRK5, Homo sapiens, UniProt P34947)
Sequence of UniProt P34947 (whole entry, looked up): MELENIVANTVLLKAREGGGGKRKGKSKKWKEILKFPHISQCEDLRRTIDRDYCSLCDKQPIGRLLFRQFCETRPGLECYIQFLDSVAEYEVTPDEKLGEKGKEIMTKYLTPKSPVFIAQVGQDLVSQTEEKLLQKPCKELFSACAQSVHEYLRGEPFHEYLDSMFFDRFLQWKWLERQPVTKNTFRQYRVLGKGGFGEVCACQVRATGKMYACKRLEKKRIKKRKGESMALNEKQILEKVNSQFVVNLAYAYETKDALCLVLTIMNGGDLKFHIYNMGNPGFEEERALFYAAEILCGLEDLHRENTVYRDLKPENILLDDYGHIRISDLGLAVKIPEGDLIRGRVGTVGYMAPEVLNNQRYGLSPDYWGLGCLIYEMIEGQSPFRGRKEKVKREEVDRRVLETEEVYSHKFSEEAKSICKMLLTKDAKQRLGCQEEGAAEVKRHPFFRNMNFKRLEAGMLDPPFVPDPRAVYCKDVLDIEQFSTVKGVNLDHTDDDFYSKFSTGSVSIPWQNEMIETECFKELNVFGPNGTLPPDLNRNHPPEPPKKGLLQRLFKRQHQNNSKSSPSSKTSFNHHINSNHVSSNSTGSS
Read-out: enzyme activity
Action: inhibitor
Tested at: 0.5 µM
Reference: control
For CN(C)c1ccc(C=C2C(=O)Nc3ccccc32)cc1, the remaining activity was 104%.
O=C(O)c1ccc2c3c1cccc3c(=O)n1c3ccccc3nc21 has a remaining activity of 97.1%.
Nc1[nH]nc2nc3ccccc3nc12 gave a remaining activity of 101%.
OCC(O)CCON=C1C(c2c(O)[nH]c3ccccc23)=Nc2ccccc21 (stereo not shown) gave a remaining activity of 84.6%.
With CNC(=O)c1cc(Oc2ccc(NC(=O)Nc3ccc(Cl)c(C(F)(F)F)c3)cc2)ccn1 the remaining activity was 97.8%.
O=C1NC(=O)C(c2cn(CCCO)c3ncccc23)=C1c1cnccn1 gave a remaining activity of 116%.
Cc1ccc(NC(=O)c2ccc(CN3CCN(C)CC3)cc2)cc1Nc1nc(-c2cccnc2)cs1 gave a remaining activity of 106%.
The remaining activity of Cn1sc(=O)n(Cc2ccccc2)c1=O is reported as 93.6%.
For Nc1ccc2ncnc(NCCc3ccc(Oc4ccccc4)cc3)c2c1, the remaining activity was 98%.
For O=C1NC(=O)C(c2cn(CCCn3ccnc3)c3ccccc23)=C1Nc1ccccc1, the remaining activity was 90.9%.
For C#Cc1cccc(Nc2ncnc3cc(OCCOC)c(OCCOC)cc23)c1, the remaining activity was 100%.
The remaining activity of Cc1nc(-c2ccccc2)c(-c2ccncc2)o1 is reported as 104%.
Cc1cccc(-c2[nH]c(C(C)(C)C)nc2-c2ccc3c(c2)OCO3)n1 has a remaining activity of 108%.
The remaining activity of COc1ccc(CNC(=O)Nc2ncc([N+](=O)[O-])s2)cc1 is reported as 104%.
For CC(C)[C@H](CO)Nc1nc(Nc2cc(N)cc(Cl)c2)c2ncn(C(C)C)c2n1, the remaining activity was 101%.
CCOC(=O)c1c(C)[nH]c(/C=C2\C(=O)Nc3ccccc32)c1C has a remaining activity of 102%.

Sample 4
Target: Sigma intracellular receptor 2 (TMEM97, Homo sapiens, UniProt Q5BJF2)
Sequence of UniProt Q5BJF2 (whole entry, looked up): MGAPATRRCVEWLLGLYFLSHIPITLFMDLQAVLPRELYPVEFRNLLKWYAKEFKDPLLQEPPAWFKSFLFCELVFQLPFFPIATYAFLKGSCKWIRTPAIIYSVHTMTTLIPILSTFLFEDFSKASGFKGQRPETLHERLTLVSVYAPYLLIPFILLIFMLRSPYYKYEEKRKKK
Read-out: binding
Method: radioligand binding
Tested at: 10 µM
With CNC(=O)Nc1ccc2c(c1)[C@]1(CC2)OC(=O)N(CC(=O)N(Cc2ccc(F)cc2)[C@@H](C)C(F)(F)F)C1=O the inhibition was 55.5%.
O=C([C@H]1C[C@H](O)CN1c1ccc(Cl)cc1)N1CC2COCC(C1)N2Cc1ccc(Cl)cc1 has an inhibition of 76.5%.
For Cc1cc(-n2nc(Cc3cc(F)cc(C(F)(F)F)c3)nc2C)ccc1C(N)=O, the inhibition was -7.3%.
For CC(C)(O)c1cncc(-c2nc3ccc(F)cc3n2C2CC2)c1, the inhibition was 22.7%.
The inhibition of Cc1nc(C2CCN(C(=O)c3ccc(OC(F)(F)F)cc3N)CC2)c2ncc(N3CCN(C)CC3)cc2n1 is reported as 51.4%.
The inhibition of Cc1nc(N2CC[C@@H](O)C2)ncc1-c1cc(C(F)(F)F)cc2[nH]ncc12 is reported as 45.5%.
O=C(Nc1cccnn1)N1CCC(=Cc2cccc(Oc3ccc(C(F)(F)F)cn3)c2)CC1 gave an inhibition of 91.3%.
For CCCOc1ccc([C@H]2[C@H](C(=O)O)[C@@H](c3ccc4c(c3)OCO4)CN2CC(=O)Nc2c(CC)cccc2CC)cc1, the inhibition was -7.1%.

For quick reference, copied from above (sample 2):
Non-receptor tyrosine-protein kinase TNK1 (TNK1, Homo sapiens, UniProt Q13470); enzyme activity — inhibition: 14%.
For Myosin-IIIa (MYO3A, Homo sapiens, UniProt Q8NEV4): inhibition read 34%.
Ephrin type-A receptor 5 (EPHA5, Homo sapiens, UniProt P54756); enzyme activity — inhibition: 10%.
For Serine/threonine-protein kinase pim-1 (PIM1, Homo sapiens, UniProt P11309); enzyme activity: inhibition read 0%.
Cyclin-dependent kinase 19 (CDK19, Homo sapiens, UniProt Q9BWU1) — inhibition: 33%.
For Mitogen-activated protein kinase kinase kinase 12 (MAP3K12, Homo sapiens, UniProt Q12852); enzyme activity: inhibition read 16%.
